Results gathered from unrelated publications.
Numbered parts are unrelated; each lists some results of a single study. Substitutions count along the parent as printed.

Set 1 — method: protein-binding microarray; form: double-stranded DNA, one strand shown; sample: in vitro; concentration: 940 nM top; notes: 60-bp whole probe; with: salmon DNA 0.4 mg/ml; relative to: random background probes; direction: higher = stronger binding; all sequences stand within: GCCTAGCAC … GTCTTGATTCGCTTGACGCTGCTG
Target: Interferon regulatory factor 5, full length, phosphomimetic (IRF5, Homo sapiens, UniProt Q13568-2, residues 1-514, S451D/S453D/S456D/S462D)
Oligonucleotide	fitted relative affinity
ATAGGTTTCGACTTTCGGTTAGTGCTA	8.54 z-score
TCATTTTTTTTTTTTTCACTGTGCTAG	1.49 z-score
GACGAACTGCTTATCCTGACGTGCTAG	0.109 z-score
GACGCTATCGGGACTGGGGACGTGCTA	-0.122 z-score
GACGAACTGTGGTATCGAGACGTGCTA	1.19 z-score
TTAGAAATCAGTCTCGATTAGTGCTAG	3.66 z-score
TCAACTTTCTCTGCTCTTACTGTGCTA	1.93 z-score
TTAGACCTGAGTCTCGATTAGTGCTAG	2.56 z-score
TTCTTACTTTGGGATTCTGAGTGCTAG	0.736 z-score
CTAGGTTCCCTTTTCCTTTAGTGCTAG	0.69 z-score
TTAGGACTTCTTATCCTTTAGTGCTAG	0.343 z-score
TCATTTCTCTTTCCTTCACTGTGCTAG	2.25 z-score
GACGGACTGGACATTGGGGACGTGCTA	-0.477 z-score
TCACTTCTGCATTACAGACTGTGCTAG	0.105 z-score
GACGGTATAGGTCTCGGGACGTGCTAG	0.373 z-score
TTAGGTTTCGGATTCGGTTAGTGCTAG	8.57 z-score
TTAGATATCAGTCTCGATCAGTGCTAG	2.42 z-score
TCATATATGTGATTAAAACTGTGCTAG	0.274 z-score
GCCGGTTTCGACTTTCGGGACGTGCTA	8.52 z-score

Set 2 — method: RNA Bind-n-Seq; form: RNA; sample: in vitro; concentration: not given; relative to: input RNA pool; direction: higher = stronger binding
Target: RING finger protein unkempt homolog, zinc fingers 1-6, GST-SBP tag (UNK, Homo sapiens, UniProt Q9C0B0, residues 30-357)
Notes: RNA with constant flanks, human-mouse chimeric sites, ends assumed
Construct (chain): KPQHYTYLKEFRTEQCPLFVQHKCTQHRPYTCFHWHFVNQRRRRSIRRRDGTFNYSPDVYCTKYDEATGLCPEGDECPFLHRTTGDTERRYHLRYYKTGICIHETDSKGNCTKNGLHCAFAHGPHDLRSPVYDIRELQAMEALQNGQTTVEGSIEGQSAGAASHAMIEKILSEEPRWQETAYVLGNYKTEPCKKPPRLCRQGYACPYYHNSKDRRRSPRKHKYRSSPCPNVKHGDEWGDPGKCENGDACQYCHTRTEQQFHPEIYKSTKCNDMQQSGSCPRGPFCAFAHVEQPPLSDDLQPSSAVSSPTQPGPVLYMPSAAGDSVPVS
Oligonucleotide	bound/input enrichment
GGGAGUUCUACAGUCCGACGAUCACUCUUGACUCUUUCCAUCCUCUUCCUUUCCCUCUUGAUAUUCAAGGCCAUGAAUCCCAAAAUAACAGUCUUAGUGGCUAGCACCCACCCAAACUGAGGUGCCAUCCACCCCAGUGUCUCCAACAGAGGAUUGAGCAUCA	0.403 ratio
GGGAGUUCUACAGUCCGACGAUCAAAGAACCUCUCUCUGAUGAAGAUGAGGAAGACAAUGAUGAUGUUGAACCCAUUUCUGAAUUUCGAUUUGUGCCCAGUGAUAAAUCAGCAUUGGAGGCAAUGUUCACAGCAAUGUGUGAGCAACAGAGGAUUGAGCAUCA	0.155 ratio
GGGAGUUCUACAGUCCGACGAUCGUGCCCUUCUCGCUGCUGCGGAGCCCGCCCAGCUGGGACCCCUUCCGCUGGUACCCUGCACACAGCCGCCUCUUCGAUCAAGCUUUCGGGGUGCCCCGGUUGCCCGAUGAGUGGUCGCAGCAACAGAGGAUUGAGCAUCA	0.0754 ratio
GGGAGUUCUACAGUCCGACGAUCGCGGCAGAAUCAUGGAGGACAUGAUGGAGCUCCCCAAAGCGCGCGUCAACGCCGGCAUGUUACCACAGUAUAUCGACCGGCCCGUGUGCUUCGUGGGGAAGCUGGAAAAGAUUCAUCCCACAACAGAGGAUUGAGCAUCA	0.0643 ratio
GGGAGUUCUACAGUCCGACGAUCAUCAAGUACUUUGGGGACAUCAUUAGUGUGGGACAGAGACUGUUGCAAGGAGCUCGGAUCUUAGGGAUUCCAGUUAUCAUAACGGAACAAUACCCCAAAGGUCUUGGCAGCACCGUUCAACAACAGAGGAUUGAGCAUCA	0.151 ratio
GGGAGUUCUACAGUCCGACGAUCUUUGUAUUUAUGCUAAGCACACGUGCUGGUGGUCUUGGCAUCAAUCUUGCAACUGCUGAUGUAGUCAUUUUGUAUGACUCAGAUUGGAAUCCGCAAGUUGAUCUUCAGGCUAUGGACCGUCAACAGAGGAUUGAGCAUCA	0.125 ratio
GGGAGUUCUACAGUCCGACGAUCCACACACUCUUCUGCGGGACCCUCAUCCUGCAGGCCCGGGCCUAUGUGGGACCGCACGUCCUGGCAGUGGUGACCCGCACAGGGUUCUGCACAGCCAAAGGGGGCCUGGUGAGCUCCAUCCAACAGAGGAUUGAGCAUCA	0.0813 ratio
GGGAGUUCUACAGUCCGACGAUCAUAAAGGCUAUGUUGAGUGGUCCAGGUCAGUUUGCUGAGAAUGAAACCAAUGAGGUCAAUUUUAGAGAGAUCCCCUCACAUGUGCUAUCGAAAGUAUGCAUGUAUUUUACCUACAAGGUCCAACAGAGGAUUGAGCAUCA	0.162 ratio

Set 3 — target: CCNE2, cyclin fold, Cln2 fusion (human); method: yeast growth competition, sequencing; sample: yeast; notes: weak parent motif; relative to: not given; direction: higher = stronger binding
Parent: RB1 docking peptide (human); PKPLKKLRFDIEG; partner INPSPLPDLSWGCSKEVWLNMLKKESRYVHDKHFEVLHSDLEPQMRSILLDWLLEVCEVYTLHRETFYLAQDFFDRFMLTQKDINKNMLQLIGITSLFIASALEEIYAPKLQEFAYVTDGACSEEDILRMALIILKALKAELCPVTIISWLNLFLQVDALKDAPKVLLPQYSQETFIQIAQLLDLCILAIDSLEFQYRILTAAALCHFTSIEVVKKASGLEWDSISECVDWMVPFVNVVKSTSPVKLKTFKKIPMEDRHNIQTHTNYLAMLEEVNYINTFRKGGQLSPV
Variant	normalised enrichment score
L4E	0.215
G13K	1.18
D10G	1.98
F9Q	0.35
E12N	0.941
K6R	0.739
R8F	0.0527
L4P	0.789
F9D	0.194
F9T	0.447
L7A	1.19
R8T	0.979
P1D	1.75
E12I	1.22
R8Q	-0.0573
P1C	1.85
I11L	1.19
P3M	0.695
R8P	0.54
P3N	0.822

Single results of other studies
Molecule	target or system	assay	test system	setting	scale	endpoint	result
VARS1 (Homo sapiens, UniProt P26640)	CCDC88C (Homo sapiens, UniProt Q9P219)	cross-linking MS	cell fractions	with: DSSO	–	cross-linked residues	K552 to T333
PhoQ, residues 284 288 289 292 302 303 ASTSDA	PhoP, residues 12 14 15 18 19 YHFSH (Escherichia coli, UniProt P23836)	Sort-seq, refers to: YFP reporter	E. coli	PhoQ-PhoP variant library, with: 10 µM Mg2+	relative to: high Mg2+ state, higher = stronger signaling	fold induction	2.56
NDUFS2 (Homo sapiens, UniProt O75306)	NDUFA7 (Homo sapiens, UniProt O95182)	cross-linking MS	cell fractions	with: DSSO	–	cross-linked residues	K367 to K40
CCT8 (Homo sapiens, UniProt P50990)	CCT7 (Homo sapiens, UniProt Q99832)	cross-linking MS	cell fractions	with: DHSO	–	cross-linked residues	E61 to D70
SNX2 (Homo sapiens, UniProt O60749)	SNX6 (Homo sapiens, UniProt Q9UNH7)	cross-linking MS	–	hits only	–	interaction screen	cross-linked

Repeated from above (set 3):
Variant	normalised enrichment score
P1C	1.85
P3M	0.695
R8Q	-0.0573
P1D	1.75
K6R	0.739
P3N	0.822
